Results collected from several papers.
Each line is one published result; not all experiments were run side by side.
Organism: Human immunodeficiency virus 1

With `C=C(C)[C@]12C[C@@H](COC(=O)c3ccccc3)[C@@]34OC5(O[C@@H]1[C@@H]3[C@@H]1O[C@]1(COC(=O)c1ccccc1)[C@@H](O)[C@@]1(O)[C@H]4[C@H]([C@H](C)[C@@H]1OC(=O)c1ccccc1)[C@H](C)CCCCCC[C@H]5OC(=O)c1ccccc1)O2` the IC50 was no less than 1 nM (viral replication, inhibitor; MT4, NL43; 72 h).
`O=c1c(O)c(-c2ccc(O)cc2)oc2cc(O)cc(O)c12` has an IC50 of 8730 nM (viral replication; TZM-bl, BAL; 48 h).
`CC1=C[C@@H]2C(=O)[C@]3(C=C(C)[C@H](O)[C@@]3(O)[C@@H]1O)[C@H](C)C[C@@H]1[C@H]2C1(C)C` has an IC50 of greater than 1000 nM (viral replication; MT4, NL43).
`C#C[C@]1(CO)O[C@@H](n2ccc(N)nc2=O)C[C@@H]1O` has an IC50 of 25.2 nM (cytopathic effect, MTT; MT4).
`O=[N+]([O-])c1cc2nc(Cl)n(CCCO)c2cc1[N+](=O)[O-]` gave an inhibition of -0.46% (viral replication, inhibitor; TZM-bl; 1 µg/mL).
`Cc1ccnc2c1NC(=O)c1cccnc1N2C1CC1` has an IC90 of 540 nM (viral replication; MAGI-CCR5, NL43).
`C[C@]1(CO)O[C@@H](n2cnc3c(=O)[nH]c(N)nc32)C[C@@H]1O` has an IC50 of 171 nM (cytopathic effect, MTT; MT4).
`OCCn1c(Cl)nc2ccccc21` has an inhibition of 0.27% (viral replication, inhibitor; TZM-bl; 1 µg/mL).
With `Nc1ccn([C@H]2C[C@H](O)[C@](CO)(CF)O2)c(=O)n1` the IC50 was 32.9 nM (cytopathic effect, MTT; MT4).
With `O=[N+]([O-])c1ccc2c(c1)nc(Cl)n2CCO` the inhibition was 15.6% (viral replication, inhibitor; TZM-bl; 10 µg/mL).
`Nc1nc(N)c2ncn([C@H]3C[C@H](O)[C@](CO)(CF)O3)c2n1` gave an IC50 of 3 nM (cytopathic effect, MTT; MT4).
For `OCCCn1c(Cl)nc2ccccc21`, the inhibition was 4.56% (viral replication, inhibitor; TZM-bl; 10 µg/mL).
The IC50 of `O=c1c(O)c(-c2ccc(O)c(O)c2)oc2cc(O)cc(O)c12` is reported as 3840 nM (viral replication; TZM-bl, BAL; 48 h).

Excerpt of the above:
`C[C@]1(CO)O[C@@H](n2cnc3c(=O)[nH]c(N)nc32)C[C@@H]1O` has an IC50 of 171 nM (cytopathic effect, MTT; MT4).
`Nc1nc(N)c2ncn([C@H]3C[C@H](O)[C@](CO)(CF)O3)c2n1` gave an IC50 of 3 nM (cytopathic effect, MTT; MT4).
